# Results collected from several papers.
# Parts stem from different laboratories: compare values within a part only.

# Series 1
# Target: Ras GTPase-activating protein-binding protein 1, full length (G3BP1, Homo sapiens, UniProt Q13283)
# Sequence of UniProt Q13283 (whole entry, looked up): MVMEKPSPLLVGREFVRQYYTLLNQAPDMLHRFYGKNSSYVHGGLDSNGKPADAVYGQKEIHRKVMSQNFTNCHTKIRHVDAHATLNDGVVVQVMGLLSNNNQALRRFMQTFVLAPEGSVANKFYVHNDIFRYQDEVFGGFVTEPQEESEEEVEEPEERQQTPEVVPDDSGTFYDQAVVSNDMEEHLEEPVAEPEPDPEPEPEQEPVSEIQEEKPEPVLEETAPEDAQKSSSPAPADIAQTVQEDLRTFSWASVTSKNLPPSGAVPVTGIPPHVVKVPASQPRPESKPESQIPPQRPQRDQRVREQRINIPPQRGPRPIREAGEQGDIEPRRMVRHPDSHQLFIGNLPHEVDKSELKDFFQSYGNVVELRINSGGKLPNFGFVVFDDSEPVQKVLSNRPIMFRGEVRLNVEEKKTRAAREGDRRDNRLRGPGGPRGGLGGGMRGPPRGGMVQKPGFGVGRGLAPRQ
# Technique: RNA Bind-n-Seq
# Form: RNA
# Medium: in vitro
# Tested at: 200 nM
# Notes: whole 134-nt RNA, ends assumed
# Together with: 150 mM LiCl
# Relative to: input library
# Reading: higher = stronger binding
# All molecules: 7-deaza-guanosine replaces G
# Constant ends, left off below: GGGAGUUCUACAGUCCGACGAUC … UGGAAUUCUCGGGUGUCAAGG
Oligonucleotide,log2 enrichment
UAACUUUAGAGGAGGAUCUGAUGGAUAUGGCAGUGGACGUGGAUUUGGGGUUGGCUAUAAUGGGUAUGGAGGAGGACCUGGAGGUGGCAA,-0.331
AAGUCCUGUGCUACACAUCGUAUGUACCGAAUCGGUUUUGGGGUUUUGGUUUUGGGAAAGUAUUAUGUUACGCCGUUCGGAUCUGCACUU,-0.765
GCAGGAAGUAAAAACAAAUGGAAAUGCUUCGGAUAGUGGCAGGGGUGGGGGUUGCUAAGGAAAGGGAAAGAUGGGAGUGGGUAAAGAGUU,0.273
UGGGAGGUGGCUUUUGUUUAUUUUUUUAGCUCAUUUCCAGGGGUGGGAAUUUUUUUUUAAUAUGUGUCAUGAAUAAAGUUGUUUUUGAAA,-0.288
UGGGAGGUGGAUUUUGUUUAUUUUUUUAGCUCAUUUCCAGGGUUGGGAAUUUUUUUUUAAUAUGUGUCAUGAAUAAAGUUGUUUUUGAAA,-0.954
GCAGGAAGUGAAAACAAAUGGAAAUGCUUCGGAUAGUGGCAGGGGUGGGGGUUGCUAAGGAAAGGGUGGGAUGGGAGUGGGUAAAGAGUU,-0.2
AGUCCUGUGCUACACAUCGUAUGUACCGAAUCGGGUUUGGGAAAGGGUUUUUUUGGGAAAGUAUUAUGUUACGCCGUUCGGAUCUGCACU,-1.18
GUCCUGUGCUACACAUCGUAUGUACCGAAUCGGGGAGGGGAAAAAAAGGGGAAAGGGGAAAGUAUUAUGUUACGCCGUUCGGAUCUGCAC,0.641
ACCAUGCAGGUGGGCAUCUUUGGGAAGUGGGGCAAGGCGGGGAUAGGGAGGGGGGUAACACUUUGGGAACAGGUGGUCCCAGGUCGUUUC,0.374
UCCUGUGCUACACAUCGUAUGUACCGAAUCGGGGAAAAAAAGGGGUGGGGUUUUUGGGGAAAGUAUUAUGUUACGCCGUUCGGAUCUGCA,-1.7
AGUCCUGUGCUACACAUCGUAUGUACCGAAUCGGGAAAAAAAGGGAAAAAGGGAGGGAAAGUAUUAUGUUACGCCGUUCGGAUCUGCACU,-0.395

# Series 2
# Target: Histone acetyltransferase KAT6A, winged helix 2, GST fusion (KAT6A, Homo sapiens, UniProt Q92794, residues 85-181)
# Technique: protein binding microarray
# Form: double-stranded DNA, one strand shown
# Medium: in vitro
# Tested at: not given
# Notes: 8-mer, flanks averaged, mean of 2 arrays, mostly near background
# Relative to: not given
# Reading: higher = stronger binding
# Residues (chain): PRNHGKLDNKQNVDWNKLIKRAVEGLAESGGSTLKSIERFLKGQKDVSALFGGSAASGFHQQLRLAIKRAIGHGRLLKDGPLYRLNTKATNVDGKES
Oligonucleotide,E-score
CAAACCCA,0.0935
AATTCGCT,0.0665
ATCCCTGA,-0.0638
ACTGGGAC,0.0108
GGGGACGA,0.133
CACCGCTG,0.0781
ATCGTCCC,-0.00779
ACTGTCTG,0.0779
CGCCGACC,0.211
CCTCTACA,-0.14
CGACCCAC,0.137
AGGCCCTA,-0.0138
ACCTCCCT,0.0704
CAGGGGAC,0.123
CGCCCATC,0.0471
CAGTCCCA,-0.0695
CTTGGAAA,0.0557
ACGTAAAT,-0.121
AATTGTAT,0.148
AGCTGGCG,-0.0395
AAGGATTG,-0.101

# Series 3
# Target: Hepatocyte nuclear factor 3-alpha (Foxa1, Mus musculus, UniProt P35582, residues 1-468, full length assumed)
# Sequence of UniProt P35582 (whole entry, looked up): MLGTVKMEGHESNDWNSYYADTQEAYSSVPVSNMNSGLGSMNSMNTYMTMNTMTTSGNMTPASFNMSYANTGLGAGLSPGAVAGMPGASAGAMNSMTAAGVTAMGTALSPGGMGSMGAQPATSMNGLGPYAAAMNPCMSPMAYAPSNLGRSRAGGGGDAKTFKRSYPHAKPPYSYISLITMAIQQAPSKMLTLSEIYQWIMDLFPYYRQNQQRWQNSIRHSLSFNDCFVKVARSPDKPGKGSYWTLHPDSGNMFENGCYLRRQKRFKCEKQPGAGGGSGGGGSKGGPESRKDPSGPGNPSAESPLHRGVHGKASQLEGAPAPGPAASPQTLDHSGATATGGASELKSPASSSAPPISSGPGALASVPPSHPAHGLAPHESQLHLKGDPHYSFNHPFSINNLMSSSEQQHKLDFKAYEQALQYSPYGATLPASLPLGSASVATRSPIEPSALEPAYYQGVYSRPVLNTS
# Technique: EMSA with sequencing
# Form: double-stranded DNA, one strand shown
# Medium: in vitro
# Tested at: 10 and 20 nM
# Notes: whole designed probe, mean of two concentrations, ends assumed
# Relative to: negative control set to 0
# Reading: higher = stronger binding
# Constant ends, left off below: GTGAGCGGTGCCCATTGATGGGGAAC … TTTCACTGGGATCGTGGGGAC
Oligonucleotide,normalised bound fraction
TTAAAGAGTCAATCAAAGTTTGCTTTAAGAGAAAAGTAAATACACCCAACTTTCCATACAATGCCGGACCCCGAGTTCACTTCCTGGTTTCACTGTTGACTCAGGTTGCAATCCTAGATAAGTAACTACACATGCTCACTGCCCTGGGCCCAAAGCTGGGGCGAGAGCCTGGAATCAGCGCACCCCCAAGAAT,0.448 ratio
CAGTACTTAATAAGTACAAAAAAGTCTATAGCGACACTATTTATAATTTTAAAAATGATTGAAGTCAATTAACATTTAAGTGTTAAAAAGAAAGTAAACAACCCAAATATACACAAACAGTAGACTGCTCTGGCTTGCATACAGAGAGGTCCATTGCCCTTTTGGGTGGGCCTAAGAAGCACTTCTGGGGAGA,0.337 ratio
CATTTGCCTCACACAGAGTTACAAAAGTTACACCCTGTTTTCAGAAAAACTTTCCCAATACAGGCAGAGAGTTCATGTTTATTTCATAAACCTAGATTGCTTACATGTTCCAACCATTTTACAAATACTAACTCATTAAATCCTCATAACAACTCAATGGGGTAGGTTGTATTATTACCTTCATTTTACAGGT,0.0466 ratio
ATCTTCCCCCTCTTCCTTGCCCCACCAGCTCACCTACGGGGGTTATTTGCACAAAGGAAAATAAATAAAGCCGGCATTCGTTAACGCAGTTCACGCGCATACTGCTGTTTGCTCTGGATGAATCATGGTCCTTTGGCGAGGCGTGGCTCCGGGAGAGCAAAGCACCGTGTCAGGGCCATGATCCGGGGTGGCC,0.381 ratio
CATGTACAAACAAAATATGGGTTGTGTAATTTCAGTAATTCCATGTACAAGTTAAACACTCTGATATTTGCATTGCACAATATTTAAAATGTCGTAAACATGAATGCTAACAATCTTTTTTTTTTTTCCTGAGACGGAGTCTTGCTCTATCGCCCAGGCTGGAGTGCAGCGGCACAATCTCTGCTTACTGCCA,0.373 ratio
ATCTTCCCCCTCTTCCTTGCCCCACCAGCTCACCTACGGGGGTTATTTGCACAAAGGAAAATAAATAAAGCCGGCATTCGTTAACCCTCTTCACGCGCATACTGCTGTTTGCTCTGCATGAATCATGGTCCTTACGCGACGCCAGGCTCCGGGAGAGCAAAGCACCGTGTCAGGCGCATGATCCGGGCTCGCC,0.387 ratio
AAAAGTCTATTATTATTGAGTCTCACAAATCCTATATCAATGGTTCCCAACTTGCCAGAATAATAAAGTAGTTTATATGACATAAGTATATTTGTTTACATTGTAGCATTAAAGACTATGCTCATACTTAGTGGGGGTCTATCCAAACTTGCTTACTTAGATTAAGAGTGAATAAGCTTTGGTTTTTGGTTTT,0.527 ratio
TTCTGTGGGCTCATTAGTATCATTTTTAAATGGAGGCTCCGCGGCTTCATTGAGCTGAATTCCTGCCCTGCCTTGCCCTCTTTCCTTTCTTATGTGTACACAGCTCTGACTCACTCATTACACAACCTTTGGAAAGAGAGTATGTGCTTAGAGGCAGAGATATGGGCTTGCCTGTGCACGTCAGTGCAAAAAC,0.186 ratio

# Series 4
# Target: RING finger protein unkempt homolog, zinc fingers 1-6, SBP tag (UNK, Homo sapiens, UniProt Q9C0B0, residues 30-357)
# Sequence of UniProt Q9C0B0 (30-357, looked up): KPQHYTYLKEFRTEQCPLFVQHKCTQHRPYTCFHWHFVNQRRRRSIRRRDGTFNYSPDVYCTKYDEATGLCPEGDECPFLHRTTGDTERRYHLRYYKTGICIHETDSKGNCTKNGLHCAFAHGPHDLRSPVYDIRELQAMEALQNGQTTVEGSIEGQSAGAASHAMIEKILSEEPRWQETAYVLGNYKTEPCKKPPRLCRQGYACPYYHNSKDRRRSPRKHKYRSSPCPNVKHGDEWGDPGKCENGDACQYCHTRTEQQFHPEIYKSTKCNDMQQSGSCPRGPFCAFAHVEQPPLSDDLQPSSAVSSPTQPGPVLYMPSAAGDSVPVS
# Technique: RNA Bind-n-Seq
# Form: RNA
# Medium: in vitro
# Tested at: 100 nM
# Notes: RNA with constant flanks, vertebrate orthologous sites, ends assumed
# Relative to: input RNA pool
# Reading: higher = stronger binding
# Constant ends, left off below: GGGAGUUCUACAGUCCGACGAUC … CAACAGAGGAUUGAGCAUCA
Oligonucleotide,bound/input enrichment
AUAUUGUAUGUAGAGACAAAUUUUCAUUGACCCCAUUGUGAAAUUCCCUAGCAAUUUAUUUAGAAUCUUAAUUUUUCUAAUUGAAGUUCACUGUGUUAGUCAUUUUUAGUAUAAUUAAAA,3.78 ratio
CAUGUCCUUGUUACUGUGAUAUUUAAAACAUGCACAGUACUCAUUUUUCCCAAAUGAUUCUAGUAAUUGCCUAGAAUUAUCUUUUCUCUUACCUGUUAUUUAUCAAUUUUUCCCAGUAUU,1.03 ratio
AUUUGGAAUGUUAAUAAAUUGCUCUGAGAUUCCUCAAGUCCAUUUUGUAAGAUCAGACCAUAGGUGGGUGUUGUUUCUUUUAAGUUUGUGUACUGUGUCCAAUGUUACAUUUUUAAAAGU,0.613 ratio
CCAUUGUACUAGUGACAAUUUUCAUAGGGAUGACUGUCCAUAGUGGUAACUAGUCUGUGCUAGCAGAAUCAUUUACUGUGACUUUUUAAUUAUCUGCUUUGUCUGAUACCUGAAACCAAU,0.425 ratio
UGUACAUCCGCAUAACUCUCAAGACCCUUCUAACCCUGUGACCCCUCAUGCAUUUAACCGUACCCACACAUCUGUUUUCUGUAAAUAGCAGGAUAAAUGCAAAGGGCCUCCCUGGAGCUU,0.225 ratio
GUUGAACAUAAAUGUUUCCACUGGGUUUUGCUUAUAAGAAGAAAUGGACCCAUGCACUUAUAUAGCUUUUUAAUAGCGUUAACCAAUGCAUUUUUAGACAUAUUUUGAUGUAUAUAUCUA,1.53 ratio

# Series 5
# Target: UBE2T UBC core domain (UniProt Q9NPD8)
# Technique: yeast two-hybrid
# Medium: yeast
# Notes: mostly zero background
# Relative to: not given
# Reading: higher = stronger interaction
# B1: PEX2 RING domain (UniProt P28328); chain DNTLATSGKECALCGEWPTMPHTIGCEHIFCYFCAKSSFLFDVYFTCPKCGTEVHSLQPLK
# B2: TRIM3 RING domain (UniProt O75382); chain VQPMDKQFLVCSICLDRYQCPKVLPCLHTFCERCLQNYIPAQSLTLSCPVCRQTSILPEQGV
# B3: TRIM10 RING domain (UniProt Q9UDY6); chain SVTSLADEVNCPICQGTLREPVTIDCGHNFCRACLTRYCEIPGPDLEESPTCPLCKEPFRPGSFRP
# B4: TRIM52 RING domain (UniProt Q96A61); chain PMQTLQEEAVCAICLDYFKDPVSISCGHNFCRGCVTQLWSKEDEEDQNEEEDEWEEEEDEEAV
# B5: TRIM15 RING domain (UniProt Q9C019); chain SLKVVHELPACTLCAGPLEDAVTIPCGHTFCRLCLPALSQMGAQSSGKILLCPLCQEEEQAETPMA
# B6: TRIM38 RING domain (UniProt O00635); chain STKKMMEEATCSICLSLMTNPVSINCGHSYCHLCITDFFKNPSQKQLRQETFCCPQCRAPFHMDSLRP
# B7: RNF43 RING domain (UniProt Q68DV7); chain SGSSCSSAPVCAICLEEFSEGQELRVISCLHEFHRNCVDPWLHQHRTCPLCMFNITEGDSFS
# B8: RNF112 RING domain (UniProt Q9ULX5); chain QPMAPRELPTCSICLERLRDPISLDCGHDFCIRCFSTHRLPGCEPPCCPECRKICKQKRGLR
# B9: RNF150 RING domain (UniProt Q9ULK6); chain DKETESDFDNCAVCIEGYKPNDVVRILPCRHLFHKSCVDPWLLDHRTCPMCKMNILKALGIP
# Target sequence (chain): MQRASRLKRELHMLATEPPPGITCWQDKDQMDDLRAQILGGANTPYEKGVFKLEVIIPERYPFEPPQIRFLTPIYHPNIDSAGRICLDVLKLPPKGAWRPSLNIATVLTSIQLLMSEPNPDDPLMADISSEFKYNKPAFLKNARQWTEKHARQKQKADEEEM
Sequence,lacZ reporter activity
FLKKLEQSFMCVCCQELVYQPVTTECFHNVCKDCLQRSFKAQVFSCPACRHDLGQNYIMI (UHRF2 RING domain (UniProt Q96PU4)),0
B1 (PEX2 RING domain),0
B2 (TRIM3 RING domain),0
B3 (TRIM10 RING domain),0
B4 (TRIM52 RING domain),0
B5 (TRIM15 RING domain),0
KRQCSDVDDICSICQAEFQKPILLICQHIFCEECMTLWFNREKTCPLCRTVISDHINKW (RNFT1 RING domain (UniProt Q5M7Z0)),0
KIKDLNEHIVCCLCAGYFVDATTITECLHTFCKSCIVKYLQTSKYCPMCNIKIHETQPLL (PCGF1 RING domain (UniProt Q9BSM1)),0
LKQVSIRENCCSLCCDEVADTQLKPCGHSDLCMDCALQLETCPLCRKEIVSRIRQI (RSPRY1 RING domain (UniProt Q96DX4)),0
B6 (TRIM38 RING domain),0
B7 (RNF43 RING domain),0
B8 (RNF112 RING domain),0
B9 (RNF150 RING domain),0
QLQDEEDDSLCRICMDAVIDCVLLECGHMVTCTKCGKRMSECPICRQYVVRAVHVF (RNF34 RING domain (UniProt Q969K3)),0
MANWVFCNRCFQPPHRTSCFSLTNCGHVYCDACLGKGKKNECLICKAPCRTVLLSK (RNF212 RING domain (UniProt Q495C1)),0

# A few entries again (series 2):
Oligonucleotide,E-score
CAGTCCCA,-0.0695
ACCTCCCT,0.0704
CGCCCATC,0.0471
CACCGCTG,0.0781
AGGCCCTA,-0.0138
